# Measured values of several laboratories.
# Each numbered part is a random draw from the data of one study; scales do not carry over between parts.

# Block 1
# Target: Histone acetyltransferase KAT6A, both winged helices, GST fusion (KAT6A, Homo sapiens, UniProt Q92794, residues 1-181)
# Method: protein binding microarray
# Form: double-stranded DNA, one strand shown
# Matrix: in vitro
# Tested at: not given
# Setting: 8-mer, flanks averaged, mean of 2 arrays, mostly near background
# Relative to: not given
# Reading: higher = stronger binding
# Residues (chain): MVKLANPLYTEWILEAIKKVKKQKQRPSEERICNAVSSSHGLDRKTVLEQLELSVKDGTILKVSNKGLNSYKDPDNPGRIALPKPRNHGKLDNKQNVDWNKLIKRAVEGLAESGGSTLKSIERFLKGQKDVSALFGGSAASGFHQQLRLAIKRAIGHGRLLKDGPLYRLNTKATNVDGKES
Oligonucleotide,E-score
ACGGATCC,0.204
GTCCCAAA,-0.069
GCAGCGTA,0.0504
ACTAGGTA,-0.157
CCATCTGA,-0.202

# Block 2
# Target: PABPC1L2, full length, GST fusion (mouse, UniProt A0ABA7IW68)
# Method: RNAcompete
# Form: RNA
# Matrix: in vitro
# Tested at: 20 nM
# Setting: 7-mer, probes averaged, single round
# Relative to: mean of 7-mers
# Reading: higher = stronger binding
# Target sequence (chain): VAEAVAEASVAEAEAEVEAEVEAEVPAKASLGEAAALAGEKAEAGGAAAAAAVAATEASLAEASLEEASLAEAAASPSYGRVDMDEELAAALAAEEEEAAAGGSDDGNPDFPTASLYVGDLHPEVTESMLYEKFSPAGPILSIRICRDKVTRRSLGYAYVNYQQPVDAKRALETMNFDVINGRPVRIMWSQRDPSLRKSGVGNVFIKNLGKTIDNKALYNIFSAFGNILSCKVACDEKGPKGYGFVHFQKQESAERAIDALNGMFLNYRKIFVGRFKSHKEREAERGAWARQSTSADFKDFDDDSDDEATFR
Oligonucleotide,7-mer Z-score
AGGCGGG,0.615
UCGGGCU,-0.121
CUAUCCG,-0.385
ACAAAUA,1.51
GUCUACU,-0.351
CUCACCC,-0.431

# Block 3
# Target: Prothrombin, mature alpha-thrombin (F2, Homo sapiens, UniProt P00734)
# Method: aptamer microarray, sandwich
# Form: DNA with 2'F-ANA
# Matrix: in vitro
# Tested at: 200 nM
# Setting: whole 15-mer aptamer, many near background
# Added: Cy3 exosite-II aptamer, 400 nM
# Reading: higher = stronger binding
# Oligonucleotide: GGTTGGTGTGGTTGG
Modification,mean fluorescence intensity [a.u.]
2'F-ANA at 1 5 14,44.1
2'F-ANA at 1 2 4 5 11 12 15,79.8
2'F-ANA at 3 4 5 6 10 13 14,47.1
2'F-ANA at 1 2 3 5 9 12 14,45.7
2'F-ANA at 1 4 6 7 10 11 12 13,52.7

# Other studies, line by line
Molecule,target,assay,system,conditions,how to read,measurement,value
"PhoQ, residues 284 288 289 292 302 303 QWGLFV","PhoP, residues 12 14 15 18 19 LYHSL (Escherichia coli, UniProt P23836)","Sort-seq, item: YFP reporter",E. coli,"PhoQ-PhoP variant library, added: 10 µM Mg2+","relative to: high Mg2+ state, higher = stronger signaling",fold induction,36.1

# A few entries again (block 1):
Oligonucleotide,E-score
ACGGATCC,0.204
GTCCCAAA,-0.069
GCAGCGTA,0.0504
